# Measured values gathered from unrelated publications.
# Numbered parts are unrelated; each lists some results of a single study. Values joined by “and” are separate records of one study, mostly repeats; a detail may differ.

# Sample 1 — cell line: HEK-293T-ACE2-TMPRSS2; technique: cell count; concentration: 10 µM
SMILES,viability
CCS(=O)(=O)c1ncc(Cl)c(C(=O)Nc2ccc(S(=O)(=O)N(C)c3ccccc3)cc2)n1,65%
O=C(c1cccc(N2CCCN(Cc3ccccc3)C2=O)c1)N1CCN(c2cccc(Cl)c2)CC1,78%
Cc1cccc2c(-c3ccncn3)c[nH]c12,86%
CCn1ccnc1Cn1cnc(-c2ccccc2)c1-c1c(OC)cccc1OC,74%
N#CC(=NNc1ccc(OC(F)(F)F)cc1)C(=O)c1ccc(Cl)cc1,77%
CCSc1nc(CC(=O)N(C)Cc2nonc2C)cs1,68%
COC(=O)c1ccccc1-c1c2ccc(=O)cc-2oc2cc(O)ccc12,103%

# Sample 2 — observed: cell-free assay; concentration: 10 µM
# Target: Sodium-dependent serotonin transporter (SLC6A4, Homo sapiens, UniProt P31645)
# Chain of UniProt P31645 (whole entry, looked up): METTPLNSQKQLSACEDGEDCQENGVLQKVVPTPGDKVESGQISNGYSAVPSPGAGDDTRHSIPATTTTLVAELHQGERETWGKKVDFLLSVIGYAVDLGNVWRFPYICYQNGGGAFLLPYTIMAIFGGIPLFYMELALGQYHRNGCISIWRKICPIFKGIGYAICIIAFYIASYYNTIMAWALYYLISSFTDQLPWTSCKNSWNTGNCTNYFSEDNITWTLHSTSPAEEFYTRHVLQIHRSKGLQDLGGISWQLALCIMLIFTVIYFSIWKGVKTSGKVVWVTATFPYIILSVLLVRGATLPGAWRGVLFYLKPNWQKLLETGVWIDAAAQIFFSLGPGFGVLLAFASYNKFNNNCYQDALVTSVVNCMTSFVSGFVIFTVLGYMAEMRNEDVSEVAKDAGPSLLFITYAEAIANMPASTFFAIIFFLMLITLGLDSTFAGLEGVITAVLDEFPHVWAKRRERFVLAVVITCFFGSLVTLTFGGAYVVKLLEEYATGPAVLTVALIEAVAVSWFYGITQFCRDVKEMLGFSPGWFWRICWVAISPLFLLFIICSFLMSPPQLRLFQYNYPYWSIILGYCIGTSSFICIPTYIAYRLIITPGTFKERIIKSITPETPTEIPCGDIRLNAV
SMILES,inhibition [%]
CN(C)CC#Cc1ccc(OCCCc2sc(N3CCc4cccc(C(=O)Nc5nc6ccccc6s5)c4C3)nc2C(=O)O)c(F)c1,16.4
CC(=O)Nc1ncc(CN2CCC[C@H](Cc3cc(C)nc(C)c3)C2)s1,7.21
Cc1cc(Nc2nccc(C)n2)cc(-c2cnc([C@@]3(O)CC[C@H](C(=O)O)C(C)(C)C3)s2)c1,3.34
CN(C)c1ncnc(-c2ccc3nc(Nc4cc(CN5CCN(C(=O)CC(F)(F)F)CC5)ccn4)[nH]c3c2)c1Cl,9.9
C[C@@H](NC(=O)Nc1cc2[nH]ncc2c(CO)n1)c1ccccc1,2.86
Cc1c(C(=O)O)cc(-c2ccc(C3CCNCC3)cc2)c2ccc(-c3ccc(C(F)(F)F)cc3)cc12,-7.91
CN(C)C(=O)Cn1cc(-c2nc(C3(c4ccc(-c5cnc(N)nc5)cc4)CC3)no2)cn1,5.35
CS(=O)(=O)c1cc(C2(NC(=O)c3cncc4c3cnn4-c3ccc(F)cc3)CC2)ccn1,-2.94
CC(C)(C)OC(=O)N1CCCC1CNC1CCC(c2cc(F)ccc2F)(S(=O)(=O)c2ccc(Cl)cc2)CC1 (stereo not shown),6.71
CC(=O)Nc1c(C(C)=O)c(=O)n(C)c2nc(-c3ccc(Cl)cc3Cl)c(-c3ccc(Cl)cc3)cc12,-9.53
Cn1nc(C(=O)NCc2ccc(C(=O)O)cc2)cc1-c1ccc2[nH]ccc2c1,5.3
O=c1nc(-c2ccccn2)sc2ccccc12,-10.2
O=C(Nc1ccc(Oc2ccc(F)cc2)cc1)N1CCc2ncccc2[C@H]1c1ccc(F)cc1,21.1
N#Cc1ccc(Nc2ccc3[nH]c(=O)[nH]c3c2)c(Cl)c1,21.1

# Sample 3 — cell line: HEK-293T/ACE2; concentration: 10 µM; time: 16 h; baseline: vehicle
Compound,viability [%]
CO[C@H]1/C=C/O[C@@]2(C)Oc3c(C)c(O)c4c(O)c(c(/C=N/N5CCN(C)CC5)c(O)c4c3C2=O)NC(=O)/C(C)=C\C=C\[C@H](C)[C@H](O)[C@@H](C)[C@@H](O)[C@@H](C)[C@H](OC(C)=O)[C@@H]1C,101
CCCNC(C)C(=O)Nc1c(C)csc1C(=O)OC (stereo not shown),100
N[C@@H](Cc1ccc(N(CCCl)CCCl)cc1)C(=O)O,88.8
CC1COc2c(N3CCN(C)CC3)c(F)cc3c(=O)c(C(=O)O)cn1c23 (stereo not shown),104

# Other studies, line by line
SMILES,tested on,test system,conditions,endpoint,result
CC(C)c1ccc(CN2CCN(CCO)CC2)cc1,,"human, microsomes or S9","2 µM, 0.5 h",remaining compound,64.9%
N=C(N)NN,A-375,,"100 µM, 60 h",viability,104%
O=C1CCC(N2Cc3c(ccc4c3OCC43CCN(Cc4ccccc4)CC3)C2=O)C(=O)N1 (stereo not shown),,"Sprague Dawley rat, male, plasma","intravenous, 1.0 mg/kg",CL,21.7 mL/min/kg and 20.8 mL/min/kg

# A few entries again (sample 3):
Compound,viability [%]
N[C@@H](Cc1ccc(N(CCCl)CCCl)cc1)C(=O)O,88.8
CC1COc2c(N3CCN(C)CC3)c(F)cc3c(=O)c(C(=O)O)cn1c23 (stereo not shown),104
CO[C@H]1/C=C/O[C@@]2(C)Oc3c(C)c(O)c4c(O)c(c(/C=N/N5CCN(C)CC5)c(O)c4c3C2=O)NC(=O)/C(C)=C\C=C\[C@H](C)[C@H](O)[C@@H](C)[C@@H](O)[C@@H](C)[C@H](OC(C)=O)[C@@H]1C,101
